Measurements gathered from unrelated publications.
Lines come from different studies, so protocols differ. ± gives the spread as reported.

The revertant count of `COc1ccc(CNc2nc(N3CCC[C@H]3CO)ncc2C(=O)NNC(=O)c2cnc(N3CCC[C@H]3CO)nc2NCc2ccc(OC)c(Cl)c2)cc1Cl` is reported as 30 ± 3 (Salmonella typhimurium; TA98; 500 µg/plate, 48 h, with: rat liver S9).
For `CC(=NCc1ccccc1)c1c(C)cc(=O)n(O)c1O`, the selectivity index was 0.6 (hepatitis B virus; viral replication, qPCR; HepDES19 genotype D; reference: CC50 over EC50).
For `CCOc1ccc(C(=O)N2c3ccc(F)cc3[C@@H](Nc3ccccc3)C[C@H]2C)cc1`, the mortality was 47% (Aedes albopictus; 1 µM, 3 days, second-instar larvae).
`COC(=O)c1cc(O)c(=O)c(O)cc1C` gave a selectivity index of 60 fold (hepatitis B virus; HepDES19; reference: CC50 over EC50).
`O=C(O)C(Cc1ccccc1)N1CSC(=S)N(CCN(CCN2CN(C(Cc3ccccc3)C(=O)O)CSC2=S)CCN2CN(C(Cc3ccccc3)C(=O)O)CSC2=S)C1` (stereo not shown) gave a selectivity index of 0.19 (Leishmania tropica; promastigote; reference: haemolysis CC50 over IC50).
For `CC(C)=CCNCCOC1C2CC3CC(C2)CC1C3` (stereo not shown), the selectivity index was 6 (Trypanosoma brucei; reference: CC50 HEK293T over IC50 T. brucei).
For `COc1ccc(CNc2nc(N3CCC[C@H]3CO)ncc2C(=O)NN)cc1Cl`, the revertant count was 53 ± 3 (Salmonella typhimurium; TA1535; 500 µg/plate, 48 h, with: rat liver S9).
`CCC(=O)N(C)c1ccc(Cl)c(Cl)c1` gave a revertants of 10 ± 2.6 revertants/plate (Salmonella typhimurium; Ames test; TA98; 1.00 mg/plate, with rat liver S9).
With `CC(C)=CCC/C(C)=C/CNCCOC1C2CC3CC(C2)CC1C3` (stereo not shown) the selectivity index was 4.9 (Trypanosoma brucei; reference: CC50 HEK293T over IC50 T. brucei).
The CC50 of `COc1ccc(-c2cnc3[nH]cc(C#Cc4cccnc4)c3c2)cc1OC` is reported as greater than 20 µM (SARS-CoV-2 USA-WA1/2020; alamarBlue; Vero E6, infected; 24 h post infection).
The EC50 of `CC1CCC(C(C)C)C(OCC(=O)NC(C)c2ccc(-n3cncn3)cc2)C1` (stereo not shown) is reported as 17.1 ± 4.4 µM (Trypanosoma brucei; cell viability, flow cytometry, PI; bloodstream form; 24 h).
The selectivity index of `CC(C)=CCC/C(C)=C/CC/C(C)=C/CNCCOC1C2CC3CC(C2)CC1C3` (stereo not shown) is reported as 15 (Trypanosoma brucei; reference: CC50 HEK293T over IC50 T. brucei).
The therapeutic index of `Cc1cc(/C=C/C#N)cc(C)c1-n1cnc2cnc(Nc3ccc(C#N)cc3)nc21` is reported as greater than 25000 (HIV-1 wild type; reference: CC50 over EC50).

A few entries again:
The EC50 of `CC1CCC(C(C)C)C(OCC(=O)NC(C)c2ccc(-n3cncn3)cc2)C1` (stereo not shown) is reported as 17.1 ± 4.4 µM (Trypanosoma brucei; cell viability, flow cytometry, PI; bloodstream form; 24 h).
For `CC(=NCc1ccccc1)c1c(C)cc(=O)n(O)c1O`, the selectivity index was 0.6 (hepatitis B virus; viral replication, qPCR; HepDES19 genotype D; reference: CC50 over EC50).
